Assay results gathered from unrelated publications.
A part holds a random share of what one study measured.

Block 1 — method: aptamer microarray, sandwich; form: DNA with 2'F-ANA; medium: in vitro; concentration: 200 nM; added: Cy3 exosite-II aptamer, 400 nM; reading: higher = stronger binding; strand: GGTTGGTGTGGTTGG
Target: Prothrombin, mature alpha-thrombin (F2, Homo sapiens, UniProt P00734)
Notes: whole 15-mer aptamer, many near background
| Modification | mean fluorescence intensity |
| --- | --- |
| 2'F-ANA at 1 2 5 6 8 9 10 11 12 14 | 46.8 a.u. |
| 2'F-ANA at 1 2 3 5 7 8 9 10 15 | 54.8 a.u. |
| 2'F-ANA at 3 4 7 8 9 10 11 12 15 | 343 a.u. |
| 2'F-ANA at 9 14 15 | 196 a.u. |
| 2'F-ANA at 2 7 8 10 12 13 14 15 | 98.1 a.u. |
| 2'F-ANA at 2 3 4 5 6 7 9 13 14 15 | 49.7 a.u. |
| 2'F-ANA at 1 3 7 13 14 15 | 87.1 a.u. |
| 2'F-ANA at 1 3 6 7 14 15 | 86.4 a.u. |
| 2'F-ANA at 2 3 6 9 13 15 | 643 a.u. |
| 2'F-ANA at 6 9 10 11 13 14 | 89.8 a.u. |
| 2'F-ANA at 4 5 10 11 12 13 15 | 49.1 a.u. |
| 2'F-ANA at 1 2 3 5 6 9 11 13 14 15 | 47.9 a.u. |
| 2'F-ANA at 2 7 9 10 12 13 14 | 96.9 a.u. |
| 2'F-ANA at 1 3 4 5 6 9 13 | 141 a.u. |
| 2'F-ANA at 3 5 6 8 9 11 | 99.3 a.u. |
| 2'F-ANA at 1 3 5 7 10 13 | 42.1 a.u. |

Block 2 — method: RNA Bind-n-Seq; form: RNA; medium: in vitro; concentration: 365 nM; relative to: no-protein control; reading: higher = stronger binding
Target: RNA binding protein fox-1 homolog 2, RRM domain, GST-SBP tag (RBFOX2, Homo sapiens, UniProt O43251-10, residues 100-194)
Notes: natural RNA segment, single round, ends assumed
Constant ends, left off below: GGGAGUUCUACAGUCCGACGAUC … UGGAAUUCUCGGGUGCCAA
| Strand | RBNS enrichment (R) |
| --- | --- |
| CAGAGCUGGAAAGCUCAUUUCUGGAAUGUUCUAUUUGAGAAUUGCCAUUUCUGGGGUUUGUCUGUUCUAUCUCCUGCCUACCAGUCGGUAUCUUCAGCUGUUUCUUCUAU | 0.383 |
| AGCCUGGGUGACAGAGCAAGACUCUUAUCUCAAAAAAAAUAAAAUAAAAUAAAAUAAAAUAAAACAUCUUGCCCCUAGCUGAGAGAGAGGUCUCUGAAGAGCAGGCUCAG | 0.795 |
| UCCUAUGCUGGAGUUUUGAUUUUUAACUAAACGCAAAUCUGUAGAUUCUCUCCUCUCCCAUCCCAGAAAACAAAACAAAAUAAUGCUUUUCGAAAUUGUUUCUAGGACUU | 0.626 |
| GCCGCUCUCUGUAAGUGUUUGCUUGUGCAAAAGGGAAUAGUGCCGUGGAGGUGUGUGUGUCCAUGGCAUCCGGAGCGAGGCGACUGUCCUGCGUGGGUAGCCCUCGGCCG | 3 |
| UCAUGAUGGUAUGUGAAUAUGUGUGUAUGUUGCAAACAGGAAAUGCACUUGUAAACAUACGACAUGAUGUUAAAAUUGAAAGCAGGACUGAACUAACGUAUUCAAUAUUG | 1.32 |
| UCCUUCCAAAAUAUUGGCGUUUCUCUCCUACCGCGGUUAGACUGAAGACUGCCUUUCCUGGUAGGCCUGCCAGACAGAGCGCCCUUUACAAGACACACCUCAAGCUUUAC | 0.549 |
| AAGUCUUGAAAACAGUGUGAUGCAAUUACUGCUGUUCUAGCCCCCAAAGAGUUUUCUGUGCAAAAUCUUGAGAAUCAAUCAAUAAAGAAAGAUGGAAGGAAGGGAGAAAU | 0.678 |
| AGAACCUGACAUCAGAGGAGAGUGUGAUUUACCUGGGCUCAUAUAAUUAGAAGCAUCUCCAGGCCUGGAGAAAAUUUGAACUUAUGGUCCCGGGCUGCUUUGUAGUGAGC | 0.393 |
| UCUGACUUAGGCAUGUGUAGAUGGGUCCUUAGAUUCGUCCCGAGGAAGAGACUGCAAAGACACAUGAAGAUUUCUGAUCCUAAAAUGCUGUUUUGUUUACUUCCUGUCAA | 3.49 |
| AAUGCCGUCCAGUCUCUCCCAGAUGAUUUUGUAUUUUUAUUUGGGGAGAGGGGGCUGGUUUUUUUUUUUUUUUUAAUUGUCUUCAAAUCAGGAAAGAACCAUGAAAGACU | 0.616 |
| AAAGAAAGGGUGGAUGGAUUGAAAAGAUUAGCCUCUGUCUCGGUGGCAGGUUCCCACCUCGCAAGCAAUUGGAAACAAAACUUUUGGGGAGUUUUAUUUUGCAUUAGGGU | 0.596 |
| GAAAAUGGAGAGCUAUGUAACAGAUACACUACAGUAGAAGAACUUACUUCUGAAAUGAAGGGAAAAAAACCACCCCAUCGUUCCCUACUCCUCCCCACCACUUACCCGUU | 0.466 |

Block 3 — method: universal PBM; form: double-stranded DNA, one strand shown; medium: in vitro; concentration: 600 nM; reading: higher = stronger binding
Target: Sal-like protein 4, full length isoform A (SALL4, Homo sapiens, UniProt Q9UJQ4, residues 1-1053)
Chain of UniProt Q9UJQ4 (whole entry, looked up): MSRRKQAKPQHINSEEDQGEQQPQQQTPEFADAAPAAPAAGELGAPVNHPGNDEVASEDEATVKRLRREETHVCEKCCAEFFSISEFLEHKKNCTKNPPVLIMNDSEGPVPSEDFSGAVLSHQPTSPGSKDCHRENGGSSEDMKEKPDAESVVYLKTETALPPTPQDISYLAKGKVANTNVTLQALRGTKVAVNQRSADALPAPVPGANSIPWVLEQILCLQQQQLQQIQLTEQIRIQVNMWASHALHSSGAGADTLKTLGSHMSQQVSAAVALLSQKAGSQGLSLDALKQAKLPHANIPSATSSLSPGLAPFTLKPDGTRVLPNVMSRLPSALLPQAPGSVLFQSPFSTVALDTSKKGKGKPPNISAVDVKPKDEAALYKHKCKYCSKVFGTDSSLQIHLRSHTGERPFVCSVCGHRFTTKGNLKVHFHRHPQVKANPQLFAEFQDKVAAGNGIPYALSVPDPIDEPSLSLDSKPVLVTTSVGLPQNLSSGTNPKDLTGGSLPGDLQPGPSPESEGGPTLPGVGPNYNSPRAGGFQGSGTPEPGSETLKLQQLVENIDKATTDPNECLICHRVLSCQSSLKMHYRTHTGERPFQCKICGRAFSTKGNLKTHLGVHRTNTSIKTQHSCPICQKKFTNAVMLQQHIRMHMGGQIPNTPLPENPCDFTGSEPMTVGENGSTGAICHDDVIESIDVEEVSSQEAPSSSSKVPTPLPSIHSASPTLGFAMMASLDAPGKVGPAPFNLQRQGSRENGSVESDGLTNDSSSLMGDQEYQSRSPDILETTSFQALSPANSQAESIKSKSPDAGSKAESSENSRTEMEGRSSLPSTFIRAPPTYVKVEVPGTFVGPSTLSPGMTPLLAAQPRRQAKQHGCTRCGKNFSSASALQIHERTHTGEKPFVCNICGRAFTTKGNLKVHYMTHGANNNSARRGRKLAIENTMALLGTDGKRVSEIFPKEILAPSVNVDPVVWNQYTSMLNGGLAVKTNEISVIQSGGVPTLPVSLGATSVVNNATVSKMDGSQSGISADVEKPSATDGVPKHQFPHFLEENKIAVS
Notes: 8-mer, flanks averaged, mean of replicates
| Strand | E-score |
| --- | --- |
| ATAGCAAA | 0.281 |
| GGTCCTCA | -0.142 |
| CCAGGGGC | -0.425 |
| GCAGGTAA | 0.101 |
| AATCTAGT | 0.136 |
| ATACACGC | 0.0749 |
| CACTCGAA | 0.042 |
| GCTTGATA | 0.222 |
| AGGATATC | 0.0148 |
| AGTGCACG | -0.203 |
| GCCTCCAA | -0.091 |
| CCGGCCCG | -0.363 |
| AGCAATCA | 0.106 |
| AAGCAATG | 0.0911 |
| TCCCTACA | 0.155 |
| ACATGGTC | -0.118 |
| AGTAACAC | 0.0859 |
| AGGACTTA | 0.051 |
| ACTGTTCT | 0.0774 |
| GCCATACA | 0.0393 |
| ATGCAAGG | -0.105 |

Block 4 — method: protein-binding microarray; form: double-stranded DNA, one strand shown; medium: in vitro; concentration: 2200 nM top; notes: 60-bp whole probe; added: salmon DNA 0.4 mg/ml; relative to: random background probes; reading: higher = stronger binding; constant ends, left off below: GCCTAGCAC … GTCTTGATTCGCTTGACGCTGCTG
Target: Interferon regulatory factor 7, full length, phosphomimetic (IRF7, Homo sapiens, UniProt Q92985, residues 1-503, S471D/S472D/S475D/S476D/S477D/S483D/S484D/S487D)
Construct (chain): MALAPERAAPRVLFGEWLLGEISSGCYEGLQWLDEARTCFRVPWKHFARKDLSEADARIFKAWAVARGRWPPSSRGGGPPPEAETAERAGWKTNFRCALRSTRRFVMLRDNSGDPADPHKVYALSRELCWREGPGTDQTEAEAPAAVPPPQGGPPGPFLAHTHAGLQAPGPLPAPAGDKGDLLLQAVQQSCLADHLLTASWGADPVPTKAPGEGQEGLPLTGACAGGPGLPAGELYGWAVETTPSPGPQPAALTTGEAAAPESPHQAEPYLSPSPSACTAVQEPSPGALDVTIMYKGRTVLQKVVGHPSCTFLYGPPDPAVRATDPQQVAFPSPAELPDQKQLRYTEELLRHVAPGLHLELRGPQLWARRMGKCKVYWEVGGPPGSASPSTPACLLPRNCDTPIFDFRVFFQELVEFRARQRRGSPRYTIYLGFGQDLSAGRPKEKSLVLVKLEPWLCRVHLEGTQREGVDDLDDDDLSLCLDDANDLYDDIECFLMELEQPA
| Strand | fitted relative affinity [z-score] |
| --- | --- |
| GACGGTTGCGGTTTCGGGACGTGCTAG | 4.25 |
| GACGGACTGGGGTATTGGGACGTGCTA | -0.791 |
| CCAGTTTTCTTTTCATTACTGTGCTAG | 6.01 |
| GCTGACACTAACACAGTGGTGTGCTAG | -0.266 |
| TTAGGTATAGGGTATCGGTTAGTGCTA | -0.251 |
| GACGGTATCGACTTTGGGGACGTGCTA | -0.0554 |
| GACGAACTGAGACTTGAGACGTGCTAG | -0.0774 |
| TTAGGACTGTGGACTGGGTTAGTGCTA | -0.892 |
| TTAGGACTGGGTCTCGGTTGGTGCTAG | -0.14 |
| GACGATCTCAGGATCGAGACGTGCTAG | -0.0411 |
| GCCAAACACCCACATTCACCGTGCTAG | 1.13 |
| TGAGGTCTCGGACTGGGTTAGTGCTAG | -0.638 |
| TTAGGTCTCCTTCTCCATTAGTGCTAG | 1.02 |
| TCACAACTCGCCTTTTTTACTGTGCTA | 1.28 |
| TTAGATTTCAGACTGGATTTGTGCTAG | -0.000385 |
| TCAATTTTAACCCTTATACTGTGCTAG | 0.664 |
| TTAGGTATAGACTTTCGGTTAGTGCTA | 4.82 |
| GACGGTCTCGTTATCGGGACGTGCTAG | 0.176 |
| TTAGGTAACCTTATCCTTTAGTGCTAG | 0.119 |
| TTAGGTTTCCCTTCCCTTTAGTGCTAG | 3.95 |
| TTAGGACTGGGGTTTCTGTTAGTGCTA | 0.62 |
| TTAGATTTCAGTATTGATTAGTGCTAG | 0.466 |
| GACGGTTTCGCGACTGGGGACGTGCTA | 1.57 |
| TTAGATCTCACTATCGATTAGTGCTAG | 0.493 |
| TCATGGTTCTGCTTCTTACTGTGCTAG | 1.57 |

Block 5 — method: protein binding microarray; form: double-stranded DNA, one strand shown; medium: in vitro; concentration: not given; relative to: not given; reading: higher = stronger binding
Target: Histone acetyltransferase KAT6A, both winged helices, GST fusion (KAT6A, Homo sapiens, UniProt Q92794, residues 1-181)
Notes: 8-mer, flanks averaged, mean of 2 arrays, mostly near background
Residues (chain): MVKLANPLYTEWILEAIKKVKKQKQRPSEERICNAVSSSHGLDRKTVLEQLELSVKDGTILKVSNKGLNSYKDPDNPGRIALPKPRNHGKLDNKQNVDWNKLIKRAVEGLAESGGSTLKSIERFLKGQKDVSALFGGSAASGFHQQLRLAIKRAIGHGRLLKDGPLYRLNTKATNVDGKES
| Strand | E-score |
| --- | --- |
| GAATACGA | -0.0618 |
| CAATAAGA | -0.183 |
| CTGTGTAC | 0.101 |
| GATGGGGC | -0.143 |
| AGTTAATA | -0.0212 |
| GGCGAGAA | -0.00734 |
| GTAGTTGA | -0.098 |
| CCTATTTC | -0.128 |
| ATTAATCC | -0.049 |
| AGCCATTC | -0.197 |
| CGTGGCTA | -0.131 |
| GTGCGGCA | 0.162 |
| GATACGCC | 0.152 |
| CCTGCAGG | -0.143 |
| CCCTAGTA | 0.032 |
| TGGTAAAA | -0.115 |
| CATCGCTA | -0.0111 |
| AGGTCTCA | -0.0443 |
| AGAGATAT | -0.227 |
| TAATTCCA | -0.161 |

A few entries again (block 3):
| Strand | E-score |
| --- | --- |
| AGTGCACG | -0.203 |
| CACTCGAA | 0.042 |
| AAGCAATG | 0.0911 |
| ATACACGC | 0.0749 |
| GCTTGATA | 0.222 |
| ACATGGTC | -0.118 |
| ATGCAAGG | -0.105 |
| AGGACTTA | 0.051 |
| ACTGTTCT | 0.0774 |
| CCAGGGGC | -0.425 |
| GCCATACA | 0.0393 |
| GGTCCTCA | -0.142 |
| TCCCTACA | 0.155 |
